Assay results from different studies.
Parts stem from different laboratories: compare values within a part only.

Set 1 — method: protein-binding microarray; form: double-stranded DNA, one strand shown; sample: in vitro; concentration: 2200 nM top; setting: 60-bp whole probe; together with: salmon DNA 0.4 mg/ml; relative to: random background probes; direction: higher = stronger binding; measurement: fitted relative affinity; constant ends, left off below: GCCTAGCAC … GTCTTGATTCGCTTGACGCTGCTG
Target: Interferon regulatory factor 7, full length, phosphomimetic (IRF7, Homo sapiens, UniProt Q92985, residues 1-503, S471D/S472D/S475D/S476D/S477D/S483D/S484D/S487D)
Residues (chain): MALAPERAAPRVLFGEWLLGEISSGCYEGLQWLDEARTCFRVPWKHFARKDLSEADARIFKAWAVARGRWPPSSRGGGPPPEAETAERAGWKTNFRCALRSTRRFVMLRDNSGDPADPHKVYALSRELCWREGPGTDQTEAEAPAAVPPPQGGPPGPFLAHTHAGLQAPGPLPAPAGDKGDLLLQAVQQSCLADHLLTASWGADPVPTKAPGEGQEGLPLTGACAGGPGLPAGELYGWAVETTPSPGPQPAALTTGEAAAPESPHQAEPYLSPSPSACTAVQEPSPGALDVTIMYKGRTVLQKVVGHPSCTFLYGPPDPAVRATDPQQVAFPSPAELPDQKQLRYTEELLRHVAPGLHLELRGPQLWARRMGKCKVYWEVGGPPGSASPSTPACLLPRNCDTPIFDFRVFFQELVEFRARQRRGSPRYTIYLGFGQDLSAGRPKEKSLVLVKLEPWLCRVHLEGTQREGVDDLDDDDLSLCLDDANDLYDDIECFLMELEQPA
GACGGTTCCCTTCTCCTGACGTGCTAG: 1.56 z-score
TCACACTCCAGTCTGGGACTGTGCTAG: 0.781 z-score
TTTAAGCTCCTATCTTATGATGTGCTA: 0.335 z-score
TCAAGGCTGGTCTCTAACACTGTGCTA: -0.826 z-score
GACAGTATCGGTATCGGGACGTGCTAG: 0.626 z-score
TTAGGTCTCCTACTGCTGTAGTGCTAG: 0.378 z-score
GACGGTTTCGGCTTTCGGGACGTGCTA: 6.88 z-score

Set 2 — method: RNA Bind-n-Seq; form: RNA; sample: in vitro; concentration: 365 nM; relative to: no-protein control; direction: higher = stronger binding; measurement: RBNS enrichment (R)
Target: RNA binding protein fox-1 homolog 2, RRM domain, GST-SBP tag (RBFOX2, Homo sapiens, UniProt O43251-10, residues 100-194)
Setting: natural RNA segment, single round, ends assumed
Target sequence (chain): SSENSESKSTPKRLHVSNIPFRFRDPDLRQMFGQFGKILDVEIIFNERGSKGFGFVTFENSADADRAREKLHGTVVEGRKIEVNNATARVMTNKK
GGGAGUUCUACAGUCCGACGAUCAAUGGUGAUAAUAAUGCCUACCUCCCGAGGUUGUUGUAAGAAUUAUAAGCACAAAUGUAUGUAAAGUGCCUGGCACAAAGUAGGUGCUCAAUAAAUGGUAGCUAUUAUAAUGGAAUUCUCGGGUGCCAA: 2.15
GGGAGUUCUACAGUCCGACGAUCAGCCCCACCAUGCAACUUCCUUUGACUUUCUGUGUACCACUGGGAUAGAGGAAUCAAGAGGACAAUCUAGCUCUCCAUACUUUGAACAACCAAAUGUGCAUUGAAUACUCUGGAAUUCUCGGGUGCCAA: 0.562
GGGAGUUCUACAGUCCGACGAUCGCCUUUGAGAAUGGGGAGAAACAGCCUGGGCUGGGGCUACAGGUCUGUCACUAUGCUCUCUUGCCUUCAGACAGACCAUUCUGAAUUCUCUAAAGGGAAAGGGCUUUUGCUGGAAUUCUCGGGUGCCAA: 0.456
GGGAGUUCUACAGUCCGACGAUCCAAGAAAACUUUGAAAAGAACAUGCUUUAACUGAAGCAUUGGACUCUGCAGCUUUCUGUGUAAGGCCCGUGUACUCCCACUGGGCAGGGUGAGGACCAAAAAUCUGAAACUGGAAUUCUCGGGUGCCAA: 0.292
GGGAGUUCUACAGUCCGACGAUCUGGAGACAUGGGCAAGCAUUAGUGGCUUCAGAUUGGAGACCAGCCUGGGACUUCCCUGCAGUGAGAGAGCAUCUCCCCCUGGUCCAUGCCCCUCCUGUGCAGAAGGGAGCUGGAAUUCUCGGGUGCCAA: 1.03
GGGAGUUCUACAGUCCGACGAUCACUUUGUGAAUGCACCAUUUUGAUGAUCAUGAAACGCUGAUGAAAAAUGCCUCCAAACAUUUUUCUGUACUCAUACUUAGAUUCACAAUGGUUGUGUAUCUCUAUAAUGUUGGAAUUCUCGGGUGCCAA: 0.402
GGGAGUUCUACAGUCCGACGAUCAAGUGUGUUUUGUCUAUAAAGUGCAAGUGUUUUAAUGUUUAUGUAAAUUAUGCAGGUGAUAACAUGGUUUGGAACUGUUUAUUGGGCUCUUUAACUGAAUUUUCAAAUGAUGGAAUUCUCGGGUGCCAA: 1.13

Other studies, line by line
PES1 (Homo sapiens, UniProt O00541)
cross-linked residues (BOP1 (Homo sapiens, UniProt Q14137); cross-linking MS; cell fractions; together with: DSSO): K564 to K339

PhoQ, residues 284 288 289 292 302 303 SACGEM
fold induction (PhoP, residues 12 14 15 18 19 QWHVF (Escherichia coli, UniProt P23836); Sort-seq, measured: YFP reporter; E. coli; PhoQ-PhoP variant library, together with: 10 µM Mg2+; relative to: high Mg2+ state, higher = stronger signaling): 13.1

PGRMC1 (Homo sapiens, UniProt O00264)
interaction screen (RPN1 (Homo sapiens, UniProt P04843); cross-linking MS; hits only): cross-linked

TXLNA (Homo sapiens, UniProt P40222)
cross-linked residues (C1orf122 (Homo sapiens, UniProt Q6ZSJ8); cross-linking MS; cell fractions; together with: DSSO): K364 to K21

Excerpt of the above (other studies, line by line):
PES1 (Homo sapiens, UniProt O00541)
cross-linked residues (BOP1 (Homo sapiens, UniProt Q14137); cross-linking MS; cell fractions; together with: DSSO): K564 to K339

PhoQ, residues 284 288 289 292 302 303 SACGEM
fold induction (PhoP, residues 12 14 15 18 19 QWHVF (Escherichia coli, UniProt P23836); Sort-seq, measured: YFP reporter; E. coli; PhoQ-PhoP variant library, together with: 10 µM Mg2+; relative to: high Mg2+ state, higher = stronger signaling): 13.1
